Published values pooled from the literature.
Parts stem from different laboratories: compare values within a part only.

Study 1 — method: RNA Bind-n-Seq; molecule type: RNA; sample: in vitro; concentration: 365 nM; relative to: no-protein control; direction: higher = stronger binding
Target: RNA binding protein fox-1 homolog 2, RRM domain, GST-SBP tag (RBFOX2, Homo sapiens, UniProt O43251-10, residues 100-194)
Notes: natural RNA segment, single round, ends assumed
Constant ends, left off below: GGGAGUUCUACAGUCCGACGAUC … UGGAAUUCUCGGGUGCCAA
| Sequence | RBNS enrichment (R) |
| --- | --- |
| CCCGGCUAUCAGCACUGUUCUGAUUGCAGACGUUUCACAGCAUGUUUGGCUUUUGGUAAAUUCAAUCCAGGAAAGACUAGCAUGUGCACUUUAUCUCAUAAUCUUCCAGU | 3.38 |
| CCUCCCGUCCUCUAAGACUAGCUCAUAAGCAUCCUGAGUCAAAGACCUCUGCCUGCCUUGUGAGUACGACUUGUGGCACUUAGCAUGGUGUUCAACACACGAAAUGCUCA | 1.33 |
| AGGACGCCAACAUGAGACCUGUAAUAAAAUAUGUAAUGGGGUUGAAAGCUGGGGAGGAGGAUCUACUGCUGUACAGCUAAUAAAUCAUAACGGAUUAACAAGUGCUCCAA | 0.488 |
| AGCUGAACUGGGAACCCUACAGCCUAGUGAUUCUUCUACUUGCUCGCUAUAGCUUUCUGUUGGCAAAUUUUCUCAAAAGCACUCUCUUUAAUCAGAUUAACUUCUUAAAC | 0.962 |
| UCCAAGUUUCUAAAGGCAAAAUUAUGAAUGGCCAUAAUGAAAAGUCCCUUACCUGCCUACCACUAGUGUCACGCAUAGUGUCACAGUGCUUCUGAUACACUCUCAUCUUG | 0.548 |
| UCUUUAGUUACAUUCAGAUUUGUAACUUUAUAAACAUGUUUUCUGCCUGAGGUACUUUUUAAGGAGGUAGUGUACAUGGGACCUUUUUGAAGUAGACUGGAUAAGGGCCA | 0.817 |

Study 2 — method: aptamer microarray, sandwich; molecule type: DNA with 2'F-ANA; sample: in vitro; concentration: 200 nM; with: Cy3 exosite-II aptamer, 400 nM; direction: higher = stronger binding; sequence: GGTTGGTGTGGTTGG
Target: Prothrombin, mature alpha-thrombin (F2, Homo sapiens, UniProt P00734)
Notes: whole 15-mer aptamer, many near background
| Modification | mean fluorescence intensity [a.u.] |
| --- | --- |
| 2'F-ANA at 1 2 4 6 7 8 10 11 15 | 52.9 |
| 2'F-ANA at 7 8 15 | 731 |
| 2'F-ANA at 1 2 3 5 7 9 11 12 14 15 | 89.7 |
| 2'F-ANA at 1 3 5 6 7 12 13 14 15 | 46.4 |
| 2'F-ANA at 5 7 8 10 11 12 | 50.9 |
| 2'F-ANA at 2 3 4 5 8 10 11 13 | 48.7 |
| 2'F-ANA at 3 6 7 10 12 13 14 15 | 359 |

Single results of other studies
| Substance | target or system | assay | test system | setting | scale | quantity | result |
| --- | --- | --- | --- | --- | --- | --- | --- |
| HNRNPA2B1 (Homo sapiens, UniProt P22626) | HNRNPA3 (Homo sapiens, UniProt P51991) | cross-linking MS | – | hits only | – | interaction screen | cross-linked |
| PhoQ, residues 284 288 289 292 302 303 SLSLLA | PhoP, residues 12 14 15 18 19 NYFTV (Escherichia coli, UniProt P23836) | Sort-seq, measured: YFP reporter | E. coli | PhoQ-PhoP variant library, with: 10 µM Mg2+ | relative to: high Mg2+ state, higher = stronger signaling | fold induction | 18.8 |

Some of these lines once more (study 1):
| Sequence | RBNS enrichment (R) |
| --- | --- |
| AGCUGAACUGGGAACCCUACAGCCUAGUGAUUCUUCUACUUGCUCGCUAUAGCUUUCUGUUGGCAAAUUUUCUCAAAAGCACUCUCUUUAAUCAGAUUAACUUCUUAAAC | 0.962 |
